Experimental data pooled from the literature.
Protocols differ between the studies behind these lines. ± gives the spread as reported.
U2AF2: U2AF2 148-342 (Homo sapiens, UniProt P26368)
Chain of UniProt P26368 (whole entry, looked up): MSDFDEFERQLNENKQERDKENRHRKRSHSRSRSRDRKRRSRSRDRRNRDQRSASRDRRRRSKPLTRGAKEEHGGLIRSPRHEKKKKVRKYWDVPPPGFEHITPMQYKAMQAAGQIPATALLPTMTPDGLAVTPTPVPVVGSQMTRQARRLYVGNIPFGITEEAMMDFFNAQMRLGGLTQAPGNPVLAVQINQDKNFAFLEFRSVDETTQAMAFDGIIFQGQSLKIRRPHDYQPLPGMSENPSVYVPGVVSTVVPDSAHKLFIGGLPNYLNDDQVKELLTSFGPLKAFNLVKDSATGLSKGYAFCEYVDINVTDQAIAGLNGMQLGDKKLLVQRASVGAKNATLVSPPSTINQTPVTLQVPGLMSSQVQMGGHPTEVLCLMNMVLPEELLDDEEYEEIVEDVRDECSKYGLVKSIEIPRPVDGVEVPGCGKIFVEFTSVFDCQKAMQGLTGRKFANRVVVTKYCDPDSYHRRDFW
EIF4E2: EIF4E2 (Homo sapiens, UniProt O60573)
Chain of UniProt O60573 (whole entry, looked up): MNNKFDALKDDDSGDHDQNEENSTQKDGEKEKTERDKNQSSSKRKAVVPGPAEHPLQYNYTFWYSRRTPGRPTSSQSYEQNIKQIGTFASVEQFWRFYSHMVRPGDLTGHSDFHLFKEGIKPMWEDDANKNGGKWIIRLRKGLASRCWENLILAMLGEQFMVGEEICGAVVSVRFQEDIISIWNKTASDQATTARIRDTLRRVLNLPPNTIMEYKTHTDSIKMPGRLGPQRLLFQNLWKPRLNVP
B1: PRPS2 (human); sequence looked up; chain PNIVLFSGSSHQDLSQRVADRLGLELGKVVTKKFSNQETSVEIGESVRGEDVYIIQSGCGEINDNLMELLIMINACKIASSSRVTAVIPCFPYARQDKKDKSRAPISAKLVANMLSVAGADHIITMDLHASQIQGFFDIPVDNLYAEPAVLQWIRENIAEWKNCIIVSPDAGGAKRVTSIADRLNVEFALIHKERKKANEVDRMVLVGDVKDRVAILVDDMADTCGTICHAADKLLSAGATKVYAILTHGIFSGPAISRINNAAFEAVVVTNTIPQEDKMKHCTKIQVIDISMILAEAIRRTHNGESVSYLFSHVPL
Chain of UniProt P84090 (whole entry, unmodified, looked up): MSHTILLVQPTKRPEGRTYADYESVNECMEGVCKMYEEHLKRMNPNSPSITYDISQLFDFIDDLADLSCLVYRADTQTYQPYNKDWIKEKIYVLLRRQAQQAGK
Chain of UniProt Q9QUK6 (whole entry, looked up): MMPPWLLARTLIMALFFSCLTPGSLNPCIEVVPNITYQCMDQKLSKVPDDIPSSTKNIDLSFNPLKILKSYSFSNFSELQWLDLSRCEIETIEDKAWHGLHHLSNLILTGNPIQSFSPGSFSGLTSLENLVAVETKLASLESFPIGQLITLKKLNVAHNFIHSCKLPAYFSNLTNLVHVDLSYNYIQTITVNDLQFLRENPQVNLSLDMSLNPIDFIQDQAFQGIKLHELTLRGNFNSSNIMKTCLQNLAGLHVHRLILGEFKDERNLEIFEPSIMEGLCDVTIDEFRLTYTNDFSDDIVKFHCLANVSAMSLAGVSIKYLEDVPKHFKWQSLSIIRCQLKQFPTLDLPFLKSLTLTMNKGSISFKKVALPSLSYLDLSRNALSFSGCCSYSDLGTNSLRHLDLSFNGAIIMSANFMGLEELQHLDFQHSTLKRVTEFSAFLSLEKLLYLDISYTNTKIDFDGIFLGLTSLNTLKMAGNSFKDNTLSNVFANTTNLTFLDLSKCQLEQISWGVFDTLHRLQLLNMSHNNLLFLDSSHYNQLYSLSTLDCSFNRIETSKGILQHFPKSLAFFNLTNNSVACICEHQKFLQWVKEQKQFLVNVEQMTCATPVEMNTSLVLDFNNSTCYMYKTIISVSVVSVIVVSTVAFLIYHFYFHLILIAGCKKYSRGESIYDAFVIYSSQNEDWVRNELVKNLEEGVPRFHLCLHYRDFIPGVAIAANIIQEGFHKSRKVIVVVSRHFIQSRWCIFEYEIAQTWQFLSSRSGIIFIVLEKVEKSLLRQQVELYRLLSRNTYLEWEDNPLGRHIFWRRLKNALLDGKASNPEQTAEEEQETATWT
Chain of UniProt P13393 (whole entry, looked up): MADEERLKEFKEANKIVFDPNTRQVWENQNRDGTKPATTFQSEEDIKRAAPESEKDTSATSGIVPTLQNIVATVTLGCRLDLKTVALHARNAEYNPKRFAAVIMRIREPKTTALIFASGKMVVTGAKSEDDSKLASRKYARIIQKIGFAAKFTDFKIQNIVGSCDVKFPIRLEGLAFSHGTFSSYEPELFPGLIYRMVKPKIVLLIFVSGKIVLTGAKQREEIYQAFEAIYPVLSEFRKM
Chain of UniProt P11362 (whole entry, looked up): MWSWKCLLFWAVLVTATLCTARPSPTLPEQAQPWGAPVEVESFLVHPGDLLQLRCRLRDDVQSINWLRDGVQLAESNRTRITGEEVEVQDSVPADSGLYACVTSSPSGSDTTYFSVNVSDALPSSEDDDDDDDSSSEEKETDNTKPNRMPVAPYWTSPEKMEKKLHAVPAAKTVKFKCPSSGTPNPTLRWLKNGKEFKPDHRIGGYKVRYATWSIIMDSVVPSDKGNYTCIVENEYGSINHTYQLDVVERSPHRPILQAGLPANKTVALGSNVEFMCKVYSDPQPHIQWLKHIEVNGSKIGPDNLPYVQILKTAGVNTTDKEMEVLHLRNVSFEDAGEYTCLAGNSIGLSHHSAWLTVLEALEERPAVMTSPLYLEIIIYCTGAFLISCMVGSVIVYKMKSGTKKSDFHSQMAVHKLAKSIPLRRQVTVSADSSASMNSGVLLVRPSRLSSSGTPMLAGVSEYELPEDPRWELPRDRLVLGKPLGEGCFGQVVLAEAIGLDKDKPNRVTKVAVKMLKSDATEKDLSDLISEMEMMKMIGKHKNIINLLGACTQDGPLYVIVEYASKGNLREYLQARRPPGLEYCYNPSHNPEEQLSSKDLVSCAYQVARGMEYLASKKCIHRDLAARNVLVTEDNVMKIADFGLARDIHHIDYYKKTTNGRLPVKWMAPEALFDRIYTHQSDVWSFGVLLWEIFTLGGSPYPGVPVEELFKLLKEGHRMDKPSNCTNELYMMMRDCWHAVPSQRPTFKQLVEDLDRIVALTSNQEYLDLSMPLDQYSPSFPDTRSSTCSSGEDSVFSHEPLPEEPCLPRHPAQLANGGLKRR

ARTKQTARKSTG (histone H3 peptide 1-12; K4me1)  molecule per partner (Ehd3 417-547 D496A (Oryza sativa, UniProt Q6ZJM9); ITC; peptide): 0.63
FGF1  lowest maximal concentration (FGFR1 (Homo sapiens, UniProt P11362); receptor phosphorylation, immunoblotting; Flp-In-293 expressing FGFR1; 10 min): 16 nM
UAUUUCCUU (ssRNA)  Kd (U2AF2; sequencing of bound RNA; RNA; motif only): 2.4 µM
DNA 1 GCCGGGCCGGCCGGCCGGCCCCCGGGGCCCGGCGCTCAATTCAATCGGTCC / DNA 2 GGACCGATTGACTTGAGCGCCGGGCCCCGGGGGCCGGCCGGCCGGCCCGGC (dsDNA; blunt; C:T mismatch; 5'-amino-C6 primer)  Kd (SPT15 full length assumed (Saccharomyces cerevisiae, UniProt P13393); EMSA; double-stranded DNA): 0.0059 ± 0.0026 µM
FGA (Homo sapiens, UniProt P02671)  cross-linked residues (KLC4 (Homo sapiens, UniProt Q9NSK0); cross-linking MS; added: DSSO): K575 to K327
GUCUUCUCU (ssRNA)  Kd (U2AF2; sequencing of bound RNA; RNA; motif only): 4.79 µM
PRTARHAPAVRKASPDLKLLKDVKISVSFTE (DGCR8 peptide F108A)  Kd (Enhancer of rudimentary homolog (Homo sapiens, UniProt P84090); ITC; peptide; 293 K, wild type, added: DGCR8 peptide): 66.3 ± 14.8 µM
Pentraxin 3  Kd (Toll-like receptor 4 (Mus musculus, UniProt Q9QUK6); fluorescence titration; pH 7.4, 25 °C, added: BODIPY FL-labelled alarmin): 0.393 µM
KYKLADYRYGREEMLALFLK (GIGYF2(35-54) peptide; sequence looked up)  ΔH (EIF4E2; ITC; peptide; pH 7.0, 20 °C, GB1-stabilized peptide titration): -22 ± 2 kcal/mol
B1 (PRPS2)  log2 fold change (PP6C (human); co-immunoprecipitation, IP-MS; CYB5R4 knockout cells; concentration not given; relative to: CYB5R4 knockout over parental): -3.56
PRTARHAPAVRKFSPDLKLLKDVKISVSFTE (DGCR8(96-126), SUMO-tagged)  Kd (Enhancer of rudimentary homolog (Homo sapiens, UniProt P84090, F60A); binding, isothermal titration calorimetry; peptide; 293 K, added: DGCR8 peptide, SUMO-tagged): 34.5 ± 9.96 µM
KYKLADYRYGREEMLALYVK (GIGYF1(33-52) peptide; sequence looked up)  ΔG (EIF4E2; ITC; peptide; pH 7.0, 20 °C, GB1-stabilized peptide titration): -8.7 kcal/mol

Repeated from above:
DNA 1 GCCGGGCCGGCCGGCCGGCCCCCGGGGCCCGGCGCTCAATTCAATCGGTCC / DNA 2 GGACCGATTGACTTGAGCGCCGGGCCCCGGGGGCCGGCCGGCCGGCCCGGC (dsDNA; blunt; C:T mismatch; 5'-amino-C6 primer)  Kd (SPT15 full length assumed (Saccharomyces cerevisiae, UniProt P13393); EMSA; double-stranded DNA): 0.0059 ± 0.0026 µM
